# Measured values pooled from the literature.
# Every numbered part comes from another study and shows a few of its results, in no order.

# Set 1
# Molecule: PhoQ, residues 284 288 289 292 302 303 SMMNNA
# Method: Sort-seq
# Refers to: YFP reporter
# Matrix: E. coli
# Notes: PhoQ-PhoP variant library
# Added: 10 µM Mg2+
# Reference: high Mg2+ state
# Direction: higher = stronger signaling
target,fold induction
"PhoP, residues 12 14 15 18 19 VGHWL (Escherichia coli, UniProt P23836)",3.61
"PhoP, residues 12 14 15 18 19 LHHYF (Escherichia coli, UniProt P23836)",4.83
"PhoP, residues 12 14 15 18 19 TPWTL (Escherichia coli, UniProt P23836)",0.422
"PhoP, residues 12 14 15 18 19 NFFVT (Escherichia coli, UniProt P23836)",22

# Set 2
# Target: Interferon regulatory factor 7, full length, phosphomimetic (IRF7, Homo sapiens, UniProt Q92985, residues 1-503, S101K/S471D/S472D/S475D/S476D/S477D/S483D/S484D/S487D)
# Method: protein-binding microarray
# Molecule type: double-stranded DNA, one strand shown
# Matrix: in vitro
# Concentration: 250 nM
# Notes: 60-bp whole probe
# Added: salmon DNA 0.4 mg/ml
# Reference: random background probes
# Direction: higher = stronger binding
# Constant ends, left off below: GCCTAGCAC … GTCTTGATTCGCTTGACGCTGCTG
# Residues (chain): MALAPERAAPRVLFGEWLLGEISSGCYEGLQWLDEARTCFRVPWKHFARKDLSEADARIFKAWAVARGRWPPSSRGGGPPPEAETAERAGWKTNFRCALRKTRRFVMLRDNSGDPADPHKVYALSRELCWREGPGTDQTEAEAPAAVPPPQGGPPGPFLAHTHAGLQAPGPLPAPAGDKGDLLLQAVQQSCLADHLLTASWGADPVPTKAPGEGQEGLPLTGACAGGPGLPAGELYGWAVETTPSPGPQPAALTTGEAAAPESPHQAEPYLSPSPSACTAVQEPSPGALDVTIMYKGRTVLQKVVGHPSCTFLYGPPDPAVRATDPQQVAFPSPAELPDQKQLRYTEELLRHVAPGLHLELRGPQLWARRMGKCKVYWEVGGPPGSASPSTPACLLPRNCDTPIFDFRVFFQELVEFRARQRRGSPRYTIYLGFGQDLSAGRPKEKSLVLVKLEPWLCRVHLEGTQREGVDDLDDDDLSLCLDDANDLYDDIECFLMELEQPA
Strand,log fluorescence
TTAGGTTTCGGTTTCGGTAAGTGCTAG,14.6 z-score
GACGGACTGGGTATAGGGACGTGCTAG,-0.529 z-score
TTAGGTCTCCTTTTCCTTTAGTGCTAG,2.29 z-score
GTAGATATCGGGTATCGATTAGTGCTA,0.39 z-score
GACGGCCTCGGTATCGGGACGTGCTAG,0.257 z-score
CTCAAGATTCCTCTCACCTCGTGCTAG,0.496 z-score
GACGAGATCGGGACTGGAGACGTGCTA,-0.319 z-score
AACGATATCAGACTGGAGACGTGCTAG,-0.413 z-score
TTTTTTTTTTTTTTTACTTCGTGCTAG,0.831 z-score
CTCTTCTTGCATCTGGGTATGTGCTAG,1.47 z-score
GACGATCTCAGTATCGAGACGTGCTAG,0.221 z-score
GACGATATCGGGTATCCAGACGTGCTA,-0.2 z-score
GACGGTAACGACACTGGGGACGTGCTA,-0.484 z-score
GACGATCTCAGTCGCGAGACGTGCTAG,-0.0319 z-score
TTAGGACTGCGTCTCGGTTAGTGCTAG,0.0558 z-score
GACGATCTCACTTTCGAGACGTGCTAG,1.02 z-score
GACGGCTTCCTTCTCCTGACGTGCTAG,-0.531 z-score
CAAATACTCTTCCATGGAGAAGTGCTA,0.632 z-score
TTAGATTTCAGTCTCAATTAGTGCTAG,0.69 z-score

# Set 3
# Target: Fragile X messenger ribonucleoprotein 1, C-terminal low-complexity region (Fmr1, Mus musculus, UniProt P35922)
# Method: RNA Bind-n-Seq
# Molecule type: RNA
# Matrix: in vitro
# Concentration: 200 nM
# Notes: whole 134-nt RNA, ends assumed
# Added: 150 mM LiCl
# Reference: input library
# Direction: higher = stronger binding
# Library: 7-deaza-guanosine replaces G
Strand,log2 enrichment
GGGAGUUCUACAGUCCGACGAUCGGUGGACUAUGGUGCAACAGCAGAAGAGCUGGAAGCUCACUUUCAUGGCUGUGGUUCAGUCAACCGUGUUACCAUACUGUGUGACAAAUUUGGAAUUCUCGGGUGUCAAGG,-2.19
GGGAGUUCUACAGUCCGACGAUCUUGUCCCGGAUGGGCAGCCUGCGGGCUCCCGUGGACGAGGACCGCCUGUCCCCGCUGGUGGCGGCCGACUCGCUCCUGGAGCAUGUGCGGUGGAAUUCUCGGGUGUCAAGG,-1.7
GGGAGUUCUACAGUCCGACGAUCUCCUGUGCUACACAUCGUAUGUACCGAAUCGGGGUUUGGGGAAAAAGGGGAAAAAGGGGAAAGUAUUAUGUUACGCCGUUCGGAUCUGCAUGGAAUUCUCGGGUGUCAAGG,-0.496
GGGAGUUCUACAGUCCGACGAUCACCAUGCAGGUGGGAAUCUUUGGGAAGUGGGGCAAGGGGGGGAUAGGGAGGGGGGUAACACUUUGGGAACAGGUGGUCCCAGGUCGUUUCUGGAAUUCUCGGGUGUCAAGG,1.22

# Set 4
# Target: RNA binding protein fox-1 homolog 2, RRM domain, GST-SBP tag (RBFOX2, Homo sapiens, UniProt O43251-10, residues 100-194)
# Method: RNA Bind-n-Seq
# Molecule type: RNA
# Matrix: in vitro
# Concentration: 365 nM
# Notes: natural RNA segment, single round, ends assumed
# Reference: no-protein control
# Direction: higher = stronger binding
# Residues (chain): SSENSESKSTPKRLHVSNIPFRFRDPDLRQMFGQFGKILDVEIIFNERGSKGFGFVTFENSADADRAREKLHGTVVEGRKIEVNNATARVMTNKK
Strand,RBNS enrichment (R)
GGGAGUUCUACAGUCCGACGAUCCCUGAAUUUACUGUUAUCUUAUUGUAGUACUUGCAUGACAUGGAUUCCUGAUAUCUGAUGAGAGGUUCAUUCUUGUGUAUUCAGUUAAUGACACCAAAAGGCUCAGCCCAUGGAAUUCUCGGGUGCCAA,2.25
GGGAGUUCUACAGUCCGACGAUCUUAUUUUGCGCUGUGUAACUGCUGCCAGCUUCUCUCUUGGCCCUGCUCCCAGAUGGCGGUCUCCUGGCAGCCUCCCCUCAGUCUUCCUCCACCCGCUCUUCCUUCCCAGCUGGAAUUCUCGGGUGCCAA,0.491
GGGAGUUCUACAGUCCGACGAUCAACCGCAAGCUCAAAAUCUUUGUAUAGUUUUGAAAAUUGAGGAGUAGCUUUGUUUGGAAGCCUUUCUGGUGGUGGUUUUUGUUGUUGUUGUUGUUUUGUUGUUUUACUAUUGGAAUUCUCGGGUGCCAA,2.34
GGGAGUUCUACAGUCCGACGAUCUUUCCUGUGAAGUUGGAGGGACGUUUGUAGUCAUGUGACACUAGCCGUCCUGCCCCUGCUGUCAGAGAUUUUUUUCUCCAGAGAGGUGCCUGUCCUGUGCUUGGAUAGUCUGGAAUUCUCGGGUGCCAA,0.425
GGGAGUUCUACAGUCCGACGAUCGAUCCACAUGGCCUGUCCCCGUGAAGGCCAAAAAGCAUUUUCUCUCCAACUCCUUCUGGGAAGGUUGAGCUGGCCAGAGCCAAGAAACACUUCCAGGAACAUUAACAUGAUGGAAUUCUCGGGUGCCAA,0.56
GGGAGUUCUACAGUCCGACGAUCGAGGCUGCUCCGUCCUUGCCAGCUGCUCCCUAGUCCUGAGUGGUCCUUGGUGAGGAGCAGCAAGAUGCAGCGAGUUGAGUGAGACUUAGGGCUUUUGAUUUUUUUUUUUUUGGAAUUCUCGGGUGCCAA,0.415
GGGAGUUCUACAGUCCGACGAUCCCACACAGUGCGAGUCGGAGUGAGUCCCGCUGGUCCUGCCCAUGCAGGGCACAGAGCUGGCUCACCCUCUGGAAGGACAGGUCAGCAGGACUAACCAGGCAGAAGCCAUUUGGAAUUCUCGGGUGCCAA,0.321
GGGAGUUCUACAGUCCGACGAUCCUGUGUGUCUGUGUCUCAGUUGCUCUGGCAGAAAAAUGGGGUUAAACUUGCCCUUUCUGAAGGCAAGCCUAGAAUUGGGUCUUUUGUUGUCAUUGUUCCAAAUUUCCAGAUGGAAUUCUCGGGUGCCAA,0.502
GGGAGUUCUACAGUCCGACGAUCUCAAGAAAACUUUGGAAAGUCAGGAACUAAGCUGCUUGGAAAUCAGUGCCACAAGCAUGACCUUGGUGGACACAGGAAGCCACAGGAAAAUUCUUGACAGUCUGUGUCCCUGGAAUUCUCGGGUGCCAA,0.804
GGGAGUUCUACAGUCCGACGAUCCUCAGUCACAUGAAGUGUGACACUGAACAGGUAGAAAGCACUGAAAAUCGUGUUCCAAGAGCACUUUGUAACUCACUGAGGGGGAGGGGAAGCACCUUUUGGGUUUGCGAUGGAAUUCUCGGGUGCCAA,0.657
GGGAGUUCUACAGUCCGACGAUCUUCACGAGUUUGCCUAGUGCUCUGGUUUACACUAUAUGACAACUAUACUUCAGCUGUUCUUUGCCUGCACUUAUUAUAUACAUUGUUUCAUGCACAGUUAUUACAAAUCAUGGAAUUCUCGGGUGCCAA,0.948
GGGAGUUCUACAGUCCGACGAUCGGCACUGUUGAGUGUCUGCUGGGGACCUGACUUUACCAGUUUCCUGAAUGGCGCCUCCCCACCUCAUUUCUGGAGUUGCAAUGGUCUCAACUCCCAUCUGAGGUGGGUACUGGAAUUCUCGGGUGCCAA,0.356

# Set 5
# Target: Histone acetyltransferase KAT6A, winged helix 2, GST fusion (KAT6A, Homo sapiens, UniProt Q92794, residues 85-181)
# Method: protein binding microarray
# Molecule type: double-stranded DNA, one strand shown
# Matrix: in vitro
# Concentration: not given
# Notes: 8-mer, flanks averaged, mean of 2 arrays, mostly near background
# Reference: not given
# Direction: higher = stronger binding
# Residues (chain): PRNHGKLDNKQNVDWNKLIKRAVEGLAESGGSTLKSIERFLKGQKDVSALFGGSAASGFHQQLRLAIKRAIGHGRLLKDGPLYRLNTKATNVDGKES
Strand,E-score
AAGAACAA,0.111
ATTAGTAG,0.0735
TGACTACA,-0.104
ACCAAGTA,-0.032
CGTTAGCA,0.108
TGGAGGAA,0.0346
CCACAACC,0.146
AACCGAGT,0.0301
CGGGACAG,0.212
TCGACAAA,0.0672
GCCGAGAC,0.042
GTCGCCTA,0.0566
CCTACGCA,-0.127
ACACTGGT,-0.193
CTGAGCTC,0.102
CCTCAGGC,-0.0568
AGTAGGGG,-0.0348
ACCTTCGT,0.0023
TTACAGAA,-0.042
CGCACGCG,0.0982

# Set 6
# Target: Centromere-binding protein 1, full length, N-terminal tag (CBF1, Saccharomyces cerevisiae, UniProt P17106, residues 1-351)
# Sequence of UniProt P17106 (whole entry, looked up): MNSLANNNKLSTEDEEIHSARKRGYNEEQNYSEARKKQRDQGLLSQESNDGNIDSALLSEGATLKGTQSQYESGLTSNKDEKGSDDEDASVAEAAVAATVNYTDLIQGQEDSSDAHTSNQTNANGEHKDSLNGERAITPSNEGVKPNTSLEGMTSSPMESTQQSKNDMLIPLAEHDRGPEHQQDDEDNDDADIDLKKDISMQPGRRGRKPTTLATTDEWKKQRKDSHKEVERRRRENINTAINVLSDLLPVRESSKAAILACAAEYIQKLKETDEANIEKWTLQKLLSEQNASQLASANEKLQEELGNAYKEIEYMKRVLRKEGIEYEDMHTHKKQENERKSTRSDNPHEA
# Method: protein-binding microarray
# Molecule type: double-stranded DNA, one strand shown
# Matrix: in vitro
# Concentration: 0.8 µM
# Notes: whole 60-bp probe, no competitor
# Direction: higher = stronger binding
Strand,fluorescence intensity [a.u.]
GAAAGTTAAGAAGATAACGTGGTGAATTTTACCTAGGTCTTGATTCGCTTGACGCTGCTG,683
GAACTTTAAAACTGTAACATCATATCGAAGGTATAGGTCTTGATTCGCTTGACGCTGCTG,542
GAACTATTCCAACCAGAGCTGACGAGCTAAAAGTAGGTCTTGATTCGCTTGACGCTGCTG,503
CTAACTCTTCTATCGCACATGTATGGTTCTTATTTCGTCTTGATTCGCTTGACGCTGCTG,616
CTATGATGTTGTATATGCCTGATGTAATCACGATTCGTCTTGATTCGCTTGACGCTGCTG,544
GAATTCCGAGCCAGACACGTTCTTATGTTTATCTAGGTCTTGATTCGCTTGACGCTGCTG,547
GAAGAAAAAATACTTAACGTGTTTCGAAACTGTTAGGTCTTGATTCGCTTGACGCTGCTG,524
GAAGTCATTTGGAATGATGTCACCGAGATTAGATAGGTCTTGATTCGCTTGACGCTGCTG,524
GAACGATAGCTAAATCACGTTTAACGAAGATTTTAGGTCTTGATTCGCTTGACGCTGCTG,919
GAACCCTCCACGGATCACCCCATTTGGAAAAGATAGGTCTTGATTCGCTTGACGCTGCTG,545
CTAAAAATACAAAATAACGTGGATGTATTAAACTTCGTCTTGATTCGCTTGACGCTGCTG,585
CTATTTTAACAATTTCTGATGATAAACTTCTTTTTCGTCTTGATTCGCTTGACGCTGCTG,524
CTAAGAAGGGAGGCTGTCACCAGGTTCCCCTATTTCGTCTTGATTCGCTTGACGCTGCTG,510

# A few entries again (set 6):
Strand,fluorescence intensity [a.u.]
CTAACTCTTCTATCGCACATGTATGGTTCTTATTTCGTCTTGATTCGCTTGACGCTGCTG,616
CTATGATGTTGTATATGCCTGATGTAATCACGATTCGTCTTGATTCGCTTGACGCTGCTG,544
GAATTCCGAGCCAGACACGTTCTTATGTTTATCTAGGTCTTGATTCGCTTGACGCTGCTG,547
GAAGAAAAAATACTTAACGTGTTTCGAAACTGTTAGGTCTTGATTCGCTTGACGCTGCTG,524
GAAGTCATTTGGAATGATGTCACCGAGATTAGATAGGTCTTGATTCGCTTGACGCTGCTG,524
GAACGATAGCTAAATCACGTTTAACGAAGATTTTAGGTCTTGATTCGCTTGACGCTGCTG,919
GAACCCTCCACGGATCACCCCATTTGGAAAAGATAGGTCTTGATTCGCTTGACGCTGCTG,545
CTAAAAATACAAAATAACGTGGATGTATTAAACTTCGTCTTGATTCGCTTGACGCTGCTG,585
CTATTTTAACAATTTCTGATGATAAACTTCTTTTTCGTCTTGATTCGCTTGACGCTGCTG,524
CTAAGAAGGGAGGCTGTCACCAGGTTCCCCTATTTCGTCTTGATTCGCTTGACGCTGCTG,510
